Results from different studies.
Each numbered part is a random draw from the data of one study; scales do not carry over between parts. Several values in a cell are separate wells, animals, samples, runs or records.
Chain of UniProt Q8NEV4 (whole entry, looked up): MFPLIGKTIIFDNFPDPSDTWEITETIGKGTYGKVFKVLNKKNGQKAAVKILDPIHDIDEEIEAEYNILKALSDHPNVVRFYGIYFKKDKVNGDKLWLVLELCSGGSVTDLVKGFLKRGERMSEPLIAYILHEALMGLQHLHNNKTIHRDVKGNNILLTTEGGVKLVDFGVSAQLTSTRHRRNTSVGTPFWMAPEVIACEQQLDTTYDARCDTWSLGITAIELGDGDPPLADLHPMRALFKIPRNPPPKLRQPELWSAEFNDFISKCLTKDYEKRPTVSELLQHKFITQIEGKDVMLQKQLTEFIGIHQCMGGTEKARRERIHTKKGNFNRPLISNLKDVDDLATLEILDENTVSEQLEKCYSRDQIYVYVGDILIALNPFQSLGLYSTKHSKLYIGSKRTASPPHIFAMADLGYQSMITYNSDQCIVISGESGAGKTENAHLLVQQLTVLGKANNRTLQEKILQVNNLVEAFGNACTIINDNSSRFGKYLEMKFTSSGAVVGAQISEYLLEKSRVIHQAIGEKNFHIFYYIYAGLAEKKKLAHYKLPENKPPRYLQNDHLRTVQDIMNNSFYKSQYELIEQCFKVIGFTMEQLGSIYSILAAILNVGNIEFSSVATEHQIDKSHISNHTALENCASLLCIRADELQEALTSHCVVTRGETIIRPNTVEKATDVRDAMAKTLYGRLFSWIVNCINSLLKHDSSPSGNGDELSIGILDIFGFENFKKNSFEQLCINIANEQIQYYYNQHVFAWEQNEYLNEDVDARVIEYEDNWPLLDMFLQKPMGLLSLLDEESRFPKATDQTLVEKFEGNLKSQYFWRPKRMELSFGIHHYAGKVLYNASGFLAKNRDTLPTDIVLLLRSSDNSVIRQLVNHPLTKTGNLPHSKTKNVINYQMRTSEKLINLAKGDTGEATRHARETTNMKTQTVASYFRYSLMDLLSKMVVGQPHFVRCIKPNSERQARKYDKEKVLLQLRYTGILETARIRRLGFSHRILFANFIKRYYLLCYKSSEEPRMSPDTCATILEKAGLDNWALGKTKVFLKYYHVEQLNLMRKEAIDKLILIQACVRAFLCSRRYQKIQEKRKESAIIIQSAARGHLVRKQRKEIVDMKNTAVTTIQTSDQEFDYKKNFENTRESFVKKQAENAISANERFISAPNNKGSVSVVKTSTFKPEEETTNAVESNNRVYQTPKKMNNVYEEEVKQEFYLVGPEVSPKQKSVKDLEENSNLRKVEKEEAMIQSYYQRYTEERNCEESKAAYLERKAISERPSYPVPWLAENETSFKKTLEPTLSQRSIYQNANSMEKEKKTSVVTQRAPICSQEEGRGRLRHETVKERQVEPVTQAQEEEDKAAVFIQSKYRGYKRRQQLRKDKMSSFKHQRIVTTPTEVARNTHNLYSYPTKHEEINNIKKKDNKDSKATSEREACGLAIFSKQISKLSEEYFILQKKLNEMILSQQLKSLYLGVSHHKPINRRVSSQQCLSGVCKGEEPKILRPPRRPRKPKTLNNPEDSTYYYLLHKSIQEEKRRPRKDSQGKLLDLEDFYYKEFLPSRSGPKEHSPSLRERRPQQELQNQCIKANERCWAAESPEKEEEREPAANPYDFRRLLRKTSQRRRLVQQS
Chain of UniProt P15735 (whole entry, looked up): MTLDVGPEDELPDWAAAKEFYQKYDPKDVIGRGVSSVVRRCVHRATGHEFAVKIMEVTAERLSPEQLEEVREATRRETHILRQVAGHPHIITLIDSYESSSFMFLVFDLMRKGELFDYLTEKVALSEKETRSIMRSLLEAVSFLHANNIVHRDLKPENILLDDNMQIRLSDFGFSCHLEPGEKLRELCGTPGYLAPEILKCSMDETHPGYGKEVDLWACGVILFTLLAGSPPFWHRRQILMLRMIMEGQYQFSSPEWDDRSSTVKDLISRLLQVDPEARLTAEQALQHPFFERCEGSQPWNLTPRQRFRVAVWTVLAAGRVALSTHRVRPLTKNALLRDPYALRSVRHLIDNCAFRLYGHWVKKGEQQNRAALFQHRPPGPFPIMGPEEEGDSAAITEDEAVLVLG
Chain of UniProt Q9H2G2 (whole entry, looked up): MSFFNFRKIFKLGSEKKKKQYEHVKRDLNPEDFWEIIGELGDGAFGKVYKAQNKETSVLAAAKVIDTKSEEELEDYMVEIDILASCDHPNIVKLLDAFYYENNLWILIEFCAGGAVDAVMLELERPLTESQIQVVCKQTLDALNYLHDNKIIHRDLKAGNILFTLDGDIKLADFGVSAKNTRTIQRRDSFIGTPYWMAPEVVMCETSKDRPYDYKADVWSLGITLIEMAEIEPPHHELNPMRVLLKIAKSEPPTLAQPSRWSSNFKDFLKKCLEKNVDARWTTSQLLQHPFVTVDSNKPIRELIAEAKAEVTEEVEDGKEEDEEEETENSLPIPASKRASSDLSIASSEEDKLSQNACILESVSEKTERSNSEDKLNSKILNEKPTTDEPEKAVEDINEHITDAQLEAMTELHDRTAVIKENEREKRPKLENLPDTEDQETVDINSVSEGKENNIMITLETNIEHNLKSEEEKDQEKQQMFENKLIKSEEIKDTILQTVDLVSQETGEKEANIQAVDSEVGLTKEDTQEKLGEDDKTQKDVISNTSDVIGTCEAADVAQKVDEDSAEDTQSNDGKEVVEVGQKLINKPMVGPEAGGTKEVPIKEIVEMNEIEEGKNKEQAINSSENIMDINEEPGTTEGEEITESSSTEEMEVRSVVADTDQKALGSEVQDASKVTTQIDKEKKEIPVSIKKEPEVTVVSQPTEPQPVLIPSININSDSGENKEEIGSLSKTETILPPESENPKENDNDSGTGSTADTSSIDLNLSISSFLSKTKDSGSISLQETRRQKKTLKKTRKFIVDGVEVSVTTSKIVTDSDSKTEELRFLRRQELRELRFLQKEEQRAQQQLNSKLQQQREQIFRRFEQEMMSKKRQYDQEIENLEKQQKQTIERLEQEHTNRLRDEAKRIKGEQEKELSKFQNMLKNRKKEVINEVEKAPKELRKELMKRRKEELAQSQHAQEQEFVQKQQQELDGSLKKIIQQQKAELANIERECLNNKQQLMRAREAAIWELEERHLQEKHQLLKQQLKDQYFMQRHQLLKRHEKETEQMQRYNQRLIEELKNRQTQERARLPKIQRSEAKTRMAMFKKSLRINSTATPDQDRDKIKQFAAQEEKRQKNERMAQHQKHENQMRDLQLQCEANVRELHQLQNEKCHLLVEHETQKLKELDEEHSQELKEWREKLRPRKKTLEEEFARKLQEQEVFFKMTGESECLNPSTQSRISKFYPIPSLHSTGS
Chain of UniProt P21709 (whole entry, looked up): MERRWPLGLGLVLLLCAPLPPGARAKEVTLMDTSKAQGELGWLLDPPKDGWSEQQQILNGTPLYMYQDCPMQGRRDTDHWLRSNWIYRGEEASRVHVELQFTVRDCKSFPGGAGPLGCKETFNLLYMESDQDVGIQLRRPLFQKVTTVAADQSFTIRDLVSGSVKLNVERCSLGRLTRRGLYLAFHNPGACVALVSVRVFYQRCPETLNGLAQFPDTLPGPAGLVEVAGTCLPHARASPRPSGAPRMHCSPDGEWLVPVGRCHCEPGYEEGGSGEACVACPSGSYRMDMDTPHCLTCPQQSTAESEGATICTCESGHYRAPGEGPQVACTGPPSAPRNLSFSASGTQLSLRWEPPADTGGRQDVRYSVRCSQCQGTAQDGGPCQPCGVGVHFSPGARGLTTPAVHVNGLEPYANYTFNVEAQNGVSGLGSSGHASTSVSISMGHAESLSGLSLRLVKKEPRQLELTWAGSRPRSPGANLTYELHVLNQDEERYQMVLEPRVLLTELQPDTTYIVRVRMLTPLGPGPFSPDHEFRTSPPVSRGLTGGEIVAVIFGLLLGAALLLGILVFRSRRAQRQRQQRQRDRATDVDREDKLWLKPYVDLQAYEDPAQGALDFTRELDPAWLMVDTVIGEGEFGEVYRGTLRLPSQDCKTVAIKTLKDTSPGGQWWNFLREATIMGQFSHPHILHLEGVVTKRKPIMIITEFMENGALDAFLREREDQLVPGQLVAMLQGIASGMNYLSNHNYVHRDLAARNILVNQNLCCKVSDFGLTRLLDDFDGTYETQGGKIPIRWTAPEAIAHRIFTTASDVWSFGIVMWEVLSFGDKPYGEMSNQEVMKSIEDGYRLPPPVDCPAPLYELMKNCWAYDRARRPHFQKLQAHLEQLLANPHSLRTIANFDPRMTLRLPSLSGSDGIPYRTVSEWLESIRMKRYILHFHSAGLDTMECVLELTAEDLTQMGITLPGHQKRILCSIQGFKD
Chain of UniProt Q9NYL2 (whole entry, looked up): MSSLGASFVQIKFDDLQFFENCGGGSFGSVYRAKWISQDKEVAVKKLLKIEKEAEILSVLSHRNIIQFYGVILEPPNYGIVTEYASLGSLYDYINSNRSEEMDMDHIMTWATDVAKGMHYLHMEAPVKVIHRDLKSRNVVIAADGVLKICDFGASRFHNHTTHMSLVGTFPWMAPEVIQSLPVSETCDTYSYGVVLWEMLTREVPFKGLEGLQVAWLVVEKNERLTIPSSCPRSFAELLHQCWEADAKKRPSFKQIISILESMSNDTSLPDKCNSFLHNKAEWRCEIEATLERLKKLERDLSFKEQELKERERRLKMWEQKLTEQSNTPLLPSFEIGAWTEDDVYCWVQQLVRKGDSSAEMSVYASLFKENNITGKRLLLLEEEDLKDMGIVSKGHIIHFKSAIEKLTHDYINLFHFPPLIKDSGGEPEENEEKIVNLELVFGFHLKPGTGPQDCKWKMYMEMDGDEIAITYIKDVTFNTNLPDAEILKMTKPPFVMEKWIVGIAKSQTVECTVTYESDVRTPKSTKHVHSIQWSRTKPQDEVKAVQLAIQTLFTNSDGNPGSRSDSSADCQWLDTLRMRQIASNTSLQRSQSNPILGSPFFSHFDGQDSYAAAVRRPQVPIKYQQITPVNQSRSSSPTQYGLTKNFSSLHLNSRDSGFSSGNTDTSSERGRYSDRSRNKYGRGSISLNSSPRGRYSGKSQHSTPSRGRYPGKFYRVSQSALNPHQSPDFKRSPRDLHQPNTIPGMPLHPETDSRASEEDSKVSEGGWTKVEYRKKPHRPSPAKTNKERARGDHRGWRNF

Study 1 — tested at: 1 µM
Compound: C=CC(=O)N1CCC([C@@H]2CCNc3c(C(N)=O)c(-c4ccc(Oc5ccccc5)cc4)nn32)CC1
target	assay	inhibition [%]
PRKCH (Homo sapiens, UniProt P24723)	enzyme activity, inhibitor	8
PHKG2 (Homo sapiens, UniProt P15735)	enzyme activity, inhibitor	0
Tyrosine-protein kinase ABL1, non-phosphorylated (ABL1, Homo sapiens, UniProt P00519, F317L)	enzyme activity, inhibitor	33
EGFR (Homo sapiens, UniProt P00533, L858R)	cell-free assay	43

Study 2 — technique: phase 2a trial; species: idiopathic pulmonary fibrosis patients
Structure (SMILES): CC(C)n1cnc(-c2ccc(F)cc2)c1-c1ncc(C(=O)Nc2ccc(N3CCN(C)CC3)cc2)[nH]1
setting	patients with dyspnoea [%]
60 mg once daily, adverse event grade 4	0
30 mg once daily, adverse event grade 1	0
30 mg once daily, adverse event grade 4	0
60 mg once daily, adverse event grade 1	0
dose not given, adverse event grade 3, all dose arms pooled	0

Study 3 — read-out: cell-free assay; technique: competition with immobilised ligand; tested at: 1 µM
SMILES: CNCc1ccccc1-c1csc([C@@H](C)Nc2nc(C)nc3cc(OC)c(OC)cc23)c1
target	remaining binding [%]
SGK2 (Homo sapiens, UniProt Q9HBY8)	95
IRAK1 (Homo sapiens, UniProt P51617)	71
STK39 (Homo sapiens, UniProt Q9UEW8)	100
TAOK1 (Homo sapiens, UniProt Q7L7X3)	95
RET (Homo sapiens, UniProt P07949, V804M)	90
NUAK2 (Homo sapiens, UniProt Q9H093)	97
Tyrosine-protein kinase JAK1, JH1 (JAK1, Homo sapiens, UniProt P23458)	100
STK32B (Homo sapiens, UniProt Q9NY57)	100
PLK3 (Homo sapiens, UniProt Q9H4B4)	91
TXK (Homo sapiens, UniProt P42681)	76
PRKD1 (Homo sapiens, UniProt Q15139)	90
Myosin-IIIa (MYO3A, Homo sapiens, UniProt Q8NEV4)	100
MAP3K20 (Homo sapiens, UniProt Q9NYL2)	75
SLK (Homo sapiens, UniProt Q9H2G2)	97
MARK2 (Homo sapiens, UniProt Q7KZI7)	99
MAPK11 (Homo sapiens, UniProt Q15759)	86
PIK3CA (Homo sapiens, UniProt P42336, I800L)	85
PIKFYVE (Homo sapiens, UniProt Q9Y2I7)	100

Study 4 — tested at: 1 µM
SMILES: C[C@H]1CC[C@H](n2c3cnccc3c3cnc(Nc4ccc5c(n4)CCN(C(=O)CO)C5)nc32)CC1
target	assay	remaining binding
MAP4K2 (Homo sapiens, UniProt Q12851)	binding, competition with immobilised ligand	64%
EPHA1 (Homo sapiens, UniProt P21709)	cell-free assay, competition with immobilised ligand	91%
CSNK1E (Homo sapiens, UniProt P49674)	binding, competition with immobilised ligand	26%
LIM domain kinase 2 (LIMK2, Homo sapiens, UniProt P53671)	binding, competition with immobilised ligand	100%
BMX (Homo sapiens, UniProt P51813)	binding, competition with immobilised ligand	82%
Myosin-IIIa (MYO3A, Homo sapiens, UniProt Q8NEV4)	binding	100%

Single results of other studies — read-out: binding; mode: competitor; technique: NanoBRET; cells: HEK293
SMILES	target	setting	normalized BRET
CC(=O)N1CCN(c2nc(OC[C@@H]3CCCN3C)nc3c2CCN(c2cccc4cccc(Cl)c24)C3)C[C@@H]1CC#N	GTPase KRas (KRAS, Homo sapiens, UniProt P01116, Q61R)	1.24 µM	100% and 94% and 86.9%
C=C(F)C(=O)N1CCN(c2nc(OC[C@@H]3CCCN3C)nc3c2CCN(c2cccc4cccc(Cl)c24)C3)C[C@@H]1CC#N	GTPase HRas (HRAS, Homo sapiens, UniProt P01112)	156 nM	90.9%
CN1CCC[C@H]1COc1nc2c(c(N3CCN(S(C)(=O)=O)[C@@H](CC#N)C3)n1)CCN(c1cccc3cccc(Cl)c13)C2	GTPase KRas (KRAS, Homo sapiens, UniProt P01116, Q61H)	412 nM	59.6% and 66.7% and 73.6%
CC(C)C(=O)N1CCN(c2nc(OC[C@@H]3CCCN3C)nc3c2CCN(c2cccc4cccc(Cl)c24)C3)C[C@@H]1CC#N	GTPase KRas (KRAS, Homo sapiens, UniProt P01116, Q61L)	33.3 µM	68.9% and 76.5% and 75%

A few entries again (study 3):
target	remaining binding [%]
Myosin-IIIa (MYO3A, Homo sapiens, UniProt Q8NEV4)	100
STK39 (Homo sapiens, UniProt Q9UEW8)	100
STK32B (Homo sapiens, UniProt Q9NY57)	100
Tyrosine-protein kinase JAK1, JH1 (JAK1, Homo sapiens, UniProt P23458)	100
